# Published values from different studies.
# Numbered parts are unrelated; each lists some results of a single study. Substitutions count along the parent as printed.

# Series 1 — target: CCNF, cyclin fold, Cln2 fusion (human); method: yeast growth competition, sequencing; matrix: yeast; setting: strong parent motif; relative to: not given; direction: higher = stronger binding; starting sequence: viral docking peptide; KGVKRKLFAEDSS
Variant,normalised enrichment score
E10N,7.86
K6A,7.36
K6M,7.75
F8R,0.783

# Series 2 — method: protein-binding microarray; form: double-stranded DNA, one strand shown; matrix: in vitro; concentration: not given; direction: higher = stronger binding
# Target: Max-binding protein MNT, bHLH-zipper, MAX partner unstated (MNT, Homo sapiens, UniProt Q99583, residues 220-300)
# Setting: k-mer, scored over probes, only values ≥0.25
# Construct (chain): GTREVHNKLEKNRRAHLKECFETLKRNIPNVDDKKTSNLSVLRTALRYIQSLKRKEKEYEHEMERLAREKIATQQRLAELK
Sequence,E-score
AGCGTGTA,0.365
ACATGGTA,0.403
ATTGCACG,0.339
CGCACCAC,0.314
CGTGCTCA,0.418
CACGCTAA,0.305
ACATGTAC,0.355
ATGCGGGC,0.314

# Series 3 — target: tungstate, free oxyanion; method: microfluidic competitive inhibition; matrix: in vitro, cell-free expressed; concentration: not given; direction: lower = stronger binding
# Setting: derived from inhibition constants, unchanged parent 2230 nM
# Starting sequence: PafA, mature enzyme, eGFP fusion (Elizabethkingia meningoseptica, UniProt Q9KJX5); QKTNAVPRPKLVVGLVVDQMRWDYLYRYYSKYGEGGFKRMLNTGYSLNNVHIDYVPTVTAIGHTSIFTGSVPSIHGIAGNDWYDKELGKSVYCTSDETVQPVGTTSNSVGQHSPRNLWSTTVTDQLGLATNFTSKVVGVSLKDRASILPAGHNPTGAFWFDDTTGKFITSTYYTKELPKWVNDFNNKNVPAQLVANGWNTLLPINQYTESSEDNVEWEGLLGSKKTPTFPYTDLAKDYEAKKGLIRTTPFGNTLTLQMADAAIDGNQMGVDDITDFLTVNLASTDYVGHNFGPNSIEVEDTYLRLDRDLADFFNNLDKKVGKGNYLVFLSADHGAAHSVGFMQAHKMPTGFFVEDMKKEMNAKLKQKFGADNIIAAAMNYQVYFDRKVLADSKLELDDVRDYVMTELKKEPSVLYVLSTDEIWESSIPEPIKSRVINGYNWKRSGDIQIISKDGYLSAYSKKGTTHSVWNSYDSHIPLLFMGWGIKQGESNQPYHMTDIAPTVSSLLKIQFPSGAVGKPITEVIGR
Variant,oxyanion analog dissociation constant [µM]
H337G,1.63
P249G,4.06
S119V,2.15
T247G,1.73

# Series 4 — method: RNA Bind-n-Seq; form: RNA; matrix: in vitro; concentration: 20 nM; setting: 6-mer, flanks averaged, single round; together with: 150 mM LiCl; relative to: input library; direction: higher = stronger binding
# Target: TAR DNA-binding protein 43, full length, His tag (TARDBP, Homo sapiens, UniProt Q13148, residues 1-414)
Sequence,6-mer enrichment (R)
CCCCUG,1.17
CAGUAC,0.846
UCUGCA,0.88
UCACAA,0.834
UGGAAA,0.942
CGCCGC,0.958
UGGCAA,0.93
AGCGAG,1.04

# Excerpt of the above (series 1):
Variant,normalised enrichment score
K6A,7.36
K6M,7.75
F8R,0.783
